Results of several laboratories.
Protocols differ between the studies behind these lines. Numbers after ± are the reported error.

Compound	cell line	test	conditions	how to read	measurement	result
CC12OOC(C)(OO1)C2CCC(=O)OCCNc1ccnc2cc(Cl)ccc12 (stereo not shown)	RPMI-8226	cell growth or viability, resazurin	10 µM, 48 h		inhibition	24.4%
CCCC[C@H](NC(=O)[C@H](Cc1ccccc1)NC(=O)[C@H](Cc1c[nH]cn1)NC(=O)CCNC(=O)[C@@H](NC(=O)[C@H](C)NC(=O)[C@H](Cc1c[nH]c2ccccc12)NC(=O)[C@H](CCC(N)=O)NC(=O)[C@H](N)Cc1ccc(O)cc1)C(C)C)C(N)=O	NCI-H1299-BRS-3	clonogenic assay in agarose	10 nM		colony number	75 ± 3
N=C(N)NCCC[C@H](NC(=O)CNC(=O)[C@@H](N)Cc1c[nH]c2ccccc12)C(=O)N1CCC[C@H]1C(=O)O	HaCaT	CCK-8	100 µg/mL, 72 h, 0.4 % serum		viability	126 ± 3.39%
CCn1cc(-c2ccn3c(-c4ccc(-c5nnc(C)o5)cc4)cnc3c2)cn1	mouse Ocy454	SIK substrate phosphorylation, immunoblotting, item: HDAC4/5, CRTC2	concentration not given		activity	inactive
CC/C=C\C/C=C\C/C=C\C/C=C\C/C=C\C/C=C\CCC(=O)Nc1ccn(C2OC(CO)C(O)C2(F)F)c(=O)n1 (stereo not shown)	MDA-MB-435	NCI60 screen			CC50	43.3 µM
CN1CCc2[nH]c3ccc(F)cc3c2CC1	rat embryonic cortical neurons	Sholl analysis	dose not given, DIV6	baseline: vehicle	dendritic arbor complexity	not toxic
O=C(O)c1ccc([PH]([Au][Cl])(c2ccccc2)c2ccccc2)cc1	HUVEC	tube formation	IC10, 16 h		tube length disruption	7%
F[P-](F)(F)(F)(F)F.OCP(CO)CO.OCP(CO)CO.OCP(CO)CO.OCP(CO)CO.[Cu+]	SW480	MTT	72 h	baseline: oxaliplatin	sensitivity ratio	3 fold
C#CCCCCOc1ccc2c(c1)CCCN2C(=O)CCl	H460 cell lysate	MS-ABPP	100 µM	reactivity ratio below 2	number of hyperreactive proteins	667 proteins
O=C(O)CCC(NP(=O)(O)OCCC[C@@H](NC(=O)CCC(NC(=O)c1ccc([18F])cc1)C(=O)O)C(=O)O)C(=O)O (stereo partly shown)	CWR22Rv1		2 h		internalized fraction	94.2%
O=C(CCl)c1ccc(F)cc1	AP1-luc HEK293	AP1 reporter gene, activator, luciferase	together with: FBS stimulation	baseline: control	fold increase	~4 fold
Cc1cc2c(C(=O)Cc3ccccc3)c(O)c(O)cc2c(O)c1-c1c(C)cc2c(C(=O)Cc3ccccc3)c(O)c(O)cc2c1O	H460	ATP-lite viability	72 h		EC50	0.68 µM
CC1CCC2C(C)C(OC(=O)CCC(=O)N(CCCc3cn(-c4ccc(C#N)cc4)nn3)CCNc3ccnc4cc(Cl)ccc34)OC3OC4(C)CCC1C32OO4 (stereo not shown)	RPMI-8226	cell growth or viability, resazurin	10 µM, 48 h		inhibition	23.3%
CNC(=O)c1cc(Oc2ccc(NC(=O)c3ccc(-c4cccc(OC(=O)CCC(=O)OC5OC6OC7(C)CCC8C(C)CCC(C5C)C68OO7)c4)cn3)cc2)ccn1 (stereo not shown)	Huh-7 and LO2	cell viability, MTT	72 h	baseline: IC50 LO2 over IC50 Huh-7	selectivity ratio	18.6
CCCC[C@H](O)C[C@@H](C)C[C@H](NC(=O)[C@@H]1C[C@H](C)CN1C(=O)/C=C/[C@@H](C)CC)C(=O)N[C@H](C(=O)NC(C)(C)C(=O)N[C@@H](CC(C)C)C(=O)N[C@@H](CC(C)C)C(=O)NC(C)(C)C(=O)NC(C)(C)C(=O)NCCC(=O)N[C@@H](C)CN(C)C)[C@H](O)C(C)C	SUM185PE	cell growth or viability, SRB	48 h		GI50	0.0028 µM
CC12OOC(C)(OO1)C2CCC(=O)NCCCNc1ccnc2cc(Cl)ccc12 (stereo not shown)	CCRF-CEM	cell growth or viability, resazurin	10 µM, 48 h		inhibition	37.8%

Compound	cell line	test	conditions	how to read	measurement	result
CNC(=O)c1cc(Oc2ccc(NC(=O)c3cc(-c4ccc(OC(=O)CCC(=O)OC5OC6OC7(C)CCC8C(C)CCC(C5C)C68OO7)cc4)ccn3)cc2)ccn1 (stereo not shown)	Hep3B and LO2	cell viability, MTT	72 h	baseline: IC50 LO2 over IC50 Hep3B	selectivity ratio	6.1
CC12CCC3(CCC(=O)NCCNc4ccnc5cc(Cl)ccc45)C(C)(OOC3(C)O1)O2	CCRF-CEM	cell growth or viability, resazurin	10 µM, 48 h		inhibition	16%
CC(=O)N[C@@H](CSSCCC(=O)NCCCC[C@H](NC(=O)CC[C@@H]1NC(=O)[C@H](Cc2ccc(O)cc2)NC(=O)[C@H](Cc2ccc3ccccc3c2)NC(=O)[C@@H]2CCCCN2C(=O)[C@@H]([C@H](C)OP(=O)(O)O)NC(=O)CN(C)C(=O)[C@@H](C)NC1=O)C(N)=O)C(=O)N[C@@H](CCCNC(=N)N)C(=O)N[C@@H](CCCNC(=N)N)C(=O)N[C@@H](CCCNC(=N)N)C(=O)N[C@@H](CCCNC(=N)N)C(=O)N[C@@H](CCCNC(=N)N)C(=O)N[C@@H](CCCNC(=N)N)C(=O)N[C@@H](CCCNC(=N)N)C(=O)N[C@@H](CCCNC(=N)N)C(N)=O	BT-474	item: PML and SMRT	0.1 to 1 µM		protein level	increased
CNC(=O)c1cc(Oc2ccc(NC(=O)c3ccc(-c4cccc(COC(=O)CCC(=O)OC5OC6OC7(C)CCC8C(C)CCC(C5C)C68OO7)c4)cn3)cc2)ccn1 (stereo not shown)	Hep3B and LO2	cell viability, MTT	72 h	baseline: IC50 LO2 over IC50 Hep3B	selectivity ratio	> 18.7
C[C@H]1C(OCCCCCCCC[P+](c2ccccc2)(c2ccccc2)c2ccccc2)O[C@@H]2O[C@@]3(C)CCC4[C@H](C)CCC1[C@]42OO3 (stereo partly shown)	J82	EdU	concentration not given, dose-dependent	baseline: control	cell proliferation	decreased
CC[C@H](C)[C@H](NC(=O)[C@H](CC(N)=O)NC(=O)[C@H](CCCCN)NC(=O)[C@H](Cc1ccccc1)NC(=O)[C@H](Cc1ccccc1)NC(=O)[C@H](Cc1c[nH]cn1)NC(=O)[C@@H](NC(=O)[C@@H](NC(=O)[C@@H]1CCCN1C(=O)[C@@H](N)CC(N)=O)C(C)C)C(C)C)C(=O)N[C@H](C(=O)N[C@H](C(=O)N[C@@H](C)C(=O)O)[C@@H](C)O)C(C)C	T cell clone Hy.2E11	T cell proliferation, agonist, [3H]thymidine incorporation	72 h, peptide-pulsed APC, together with: EBV-transformed B cells DR2/DQ6 as APC		EC50	2.8 µM
CCCN1CCNC1=[S+][Ag-3]([O][N+](=O)[O-])([P+](c1ccccc1)(c1ccccc1)c1ccccc1)[P+](c1ccccc1)(c1ccccc1)c1ccccc1	MG-63 osteosarcoma	MTT	25 µM		cell killing	≤ 75%
CC[C@H](C)[C@H](NC(C)=O)C(=O)N[C@@H](CC(N)=O)C(=O)N[C@@H](Cc1c[nH]c2ccccc12)C(=O)N[C@@H](CCC(=O)O)C(=O)NCC(=O)N[C@H](C(=O)N[C@@H](C)C(=O)N[C@@H](Cc1c[nH]cn1)C(=O)N[C@@H](CCSC)C(=O)N[C@@H](C)C(=O)N[C@@H](CCCCN)C(=O)N[C@@H](CCCCN)C(=O)N[C@@H](CC(C)C)C(=O)N[C@@H](CC(C)C)C(N)=O)[C@@H](C)CC	human erythrocytes		together with: Zn(II) 300 µM	baseline: without metal	haemolytic potency ratio	3 fold
C[C@@H]1O[C@H]2O[C@@H]3C4(O)C(=O)c5cccc(O)c5C(=O)C4(O)O[C@]3(C)[C@]21O (stereo partly shown)	HeLa and HFF	MTT		baseline: CC50 HFF over EC50 HeLa	selectivity index	2.32
O=C(Nc1ccc(C(F)(F)F)cc1Cl)c1cc(Cl)ccc1O	CWR22Rv1 cells	ELISA	0.5 and 1.0 µM		cell death	increased
CCCCCCCCCCCCCC(=O)NCC(=O)N[C@@H](CCCNC(=N)N)C(=O)N[C@@H](Cc1c[nH]c2ccccc12)C(=O)N[C@@H](CCCCN)C(=O)N[C@H](C(=O)N[C@@H](Cc1ccccc1)C(=O)N[C@@H](CCCCN)C(=O)N[C@@H](CCCCN)C(=O)N[C@H](C(=O)N[C@@H](CCC(=O)O)C(=O)N[C@@H](CCCCN)C(=O)N[C@H](C(=O)NCC(=O)N[C@@H](CCC(N)=O)C(=O)N[C@@H](CC(N)=O)C(=O)N[C@H](C(=O)N[C@@H](CCCNC(=N)N)C(=O)N[C@@H](CC(=O)O)C(=O)NCC(=O)N[C@H](C(=O)N[C@H](C(=O)N[C@@H](CCCCN)C(=O)N[C@@H](C)C(=O)NCC(=O)N1CCC[C@H]1C(=O)N[C@@H](C)C(=O)N[C@H](C(=O)N[C@@H](C)C(=O)N[C@H](C(=O)N[C@H](C(=O)NCC(=O)N[C@@H](CCC(N)=O)C(=O)N[C@@H](C)C(=O)N[C@@H](C)C(=O)N[C@H](C(=O)N[C@H](C(N)=O)[C@@H](C)CC)[C@@H](C)O)C(C)C)C(C)C)C(C)C)C(C)C)[C@@H](C)CC)[C@@H](C)CC)C(C)C)[C@@H](C)CC)[C@@H](C)CC	K562/MDR	western blot	concentration not given, 16 h		Bax protein level	increased
CSCC[C@@H](NC(=O)[C@@H](CC(C)C)NC(=O)CNC(=O)[C@@H](Cc1ccccc1)NC(=O)[C@@H](Cc1ccccc1)NC(=O)[C@@H](CCC(N)=O)NC(=O)[C@@H](CCC(N)=O)NC(=O)[C@H]1CCCN1C(=O)[C@@H](CCCCN)NC(=O)[C@H]1CCCN1C(=O)[C@H](N)CCCNC(=N)N)C(N)=O	rat mast cells	whole-cell patch-clamp capacitance	100 µM, intracellular, weakly buffered 200 µM EGTA		onset delay of degranulation	168 ± 77 s
CC(C)CC(O)(CC(C)C)c1cn(C(=O)N2CCCC2)nn1	mouse T-cells	SILAC proteomics, item: PAIP2	1 nM, 6 h, unit not given	baseline: DMSO	protein level	0.9 ± 0.2
CC[C@H](C)[C@H](NC(C)=O)C(=O)N[C@@H](CC(N)=O)C(=O)N[C@@H](Cc1c[nH]c2ccccc12)C(=O)N[C@@H](Cc1c[nH]cn1)C(=O)N[C@@H](C)C(=O)N[C@H](C(=O)N[C@@H](C)C(=O)N[C@@H](Cc1c[nH]cn1)C(=O)N[C@@H](CCSC)C(=O)N[C@@H](C)C(=O)N[C@@H](CCCCN)C(=O)N[C@@H](CCCCN)C(=O)N[C@@H](CC(C)C)C(=O)N[C@@H](CC(C)C)C(N)=O)[C@@H](C)CC	human erythrocytes		together with: Ni(II) 300 µM	baseline: without metal	haemolytic potency ratio	10 fold
C#CCCCNCCNc1ccnc2cc(Cl)ccc12	RPMI-8226	cell growth or viability, resazurin	10 µM, 48 h		inhibition	13%
